Assay results collected from several papers.
Compare with care: the assays were run in different laboratories. ± marks the error that the study gave.
Sequence of UniProt O60656 (whole entry, looked up): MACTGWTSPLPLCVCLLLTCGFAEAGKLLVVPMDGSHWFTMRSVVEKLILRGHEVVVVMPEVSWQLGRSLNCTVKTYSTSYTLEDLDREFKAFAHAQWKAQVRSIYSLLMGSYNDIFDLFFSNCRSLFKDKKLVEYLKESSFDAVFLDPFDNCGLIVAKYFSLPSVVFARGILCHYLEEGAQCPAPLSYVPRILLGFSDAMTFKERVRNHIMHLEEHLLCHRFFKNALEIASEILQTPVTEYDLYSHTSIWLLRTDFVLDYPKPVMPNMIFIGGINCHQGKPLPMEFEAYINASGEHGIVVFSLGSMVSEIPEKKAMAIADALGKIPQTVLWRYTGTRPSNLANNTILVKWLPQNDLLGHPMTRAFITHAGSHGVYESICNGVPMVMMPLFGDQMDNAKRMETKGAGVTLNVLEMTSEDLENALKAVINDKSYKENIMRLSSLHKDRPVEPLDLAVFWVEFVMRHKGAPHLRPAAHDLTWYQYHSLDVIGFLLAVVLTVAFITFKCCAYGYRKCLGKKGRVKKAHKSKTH
Sequence of UniProt P28907 (whole entry, looked up): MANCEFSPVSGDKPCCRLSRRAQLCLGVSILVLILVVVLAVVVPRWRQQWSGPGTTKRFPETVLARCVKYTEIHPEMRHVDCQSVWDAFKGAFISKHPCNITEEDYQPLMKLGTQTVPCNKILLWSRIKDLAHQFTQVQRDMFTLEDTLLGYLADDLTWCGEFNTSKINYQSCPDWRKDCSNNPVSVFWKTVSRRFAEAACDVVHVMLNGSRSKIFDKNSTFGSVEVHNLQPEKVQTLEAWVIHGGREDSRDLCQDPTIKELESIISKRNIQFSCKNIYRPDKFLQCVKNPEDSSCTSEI
Sequence of UniProt O75762 (whole entry, unmodified, looked up): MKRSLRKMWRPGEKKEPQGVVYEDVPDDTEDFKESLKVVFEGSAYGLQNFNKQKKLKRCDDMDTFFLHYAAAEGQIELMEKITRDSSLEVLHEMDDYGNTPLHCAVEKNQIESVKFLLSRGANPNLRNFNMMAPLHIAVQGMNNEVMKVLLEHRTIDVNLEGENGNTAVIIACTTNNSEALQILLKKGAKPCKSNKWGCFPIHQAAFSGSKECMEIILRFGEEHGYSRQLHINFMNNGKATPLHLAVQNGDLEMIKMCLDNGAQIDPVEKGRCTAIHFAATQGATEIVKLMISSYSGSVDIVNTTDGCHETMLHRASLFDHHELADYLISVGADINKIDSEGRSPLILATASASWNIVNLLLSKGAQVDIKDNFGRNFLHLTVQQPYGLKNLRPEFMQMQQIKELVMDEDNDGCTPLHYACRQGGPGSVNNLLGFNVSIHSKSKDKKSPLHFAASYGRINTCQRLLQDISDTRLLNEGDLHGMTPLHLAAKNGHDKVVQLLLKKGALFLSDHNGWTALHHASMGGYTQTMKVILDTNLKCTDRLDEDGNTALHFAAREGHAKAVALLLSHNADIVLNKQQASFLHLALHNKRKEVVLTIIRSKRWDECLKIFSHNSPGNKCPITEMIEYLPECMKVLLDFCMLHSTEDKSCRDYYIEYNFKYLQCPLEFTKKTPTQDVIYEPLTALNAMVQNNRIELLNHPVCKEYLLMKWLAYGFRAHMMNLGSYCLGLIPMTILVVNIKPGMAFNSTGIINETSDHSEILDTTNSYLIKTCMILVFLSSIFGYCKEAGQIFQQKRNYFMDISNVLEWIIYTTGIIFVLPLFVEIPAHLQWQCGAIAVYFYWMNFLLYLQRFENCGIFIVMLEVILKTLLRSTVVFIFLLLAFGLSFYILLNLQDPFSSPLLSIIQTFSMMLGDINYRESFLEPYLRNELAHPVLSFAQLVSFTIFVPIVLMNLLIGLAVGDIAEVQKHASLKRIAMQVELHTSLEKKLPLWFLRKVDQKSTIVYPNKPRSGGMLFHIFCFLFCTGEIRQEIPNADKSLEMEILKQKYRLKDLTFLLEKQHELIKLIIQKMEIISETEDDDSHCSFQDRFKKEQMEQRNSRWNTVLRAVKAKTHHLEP
Sequence of UniProt O14976 (whole entry, looked up): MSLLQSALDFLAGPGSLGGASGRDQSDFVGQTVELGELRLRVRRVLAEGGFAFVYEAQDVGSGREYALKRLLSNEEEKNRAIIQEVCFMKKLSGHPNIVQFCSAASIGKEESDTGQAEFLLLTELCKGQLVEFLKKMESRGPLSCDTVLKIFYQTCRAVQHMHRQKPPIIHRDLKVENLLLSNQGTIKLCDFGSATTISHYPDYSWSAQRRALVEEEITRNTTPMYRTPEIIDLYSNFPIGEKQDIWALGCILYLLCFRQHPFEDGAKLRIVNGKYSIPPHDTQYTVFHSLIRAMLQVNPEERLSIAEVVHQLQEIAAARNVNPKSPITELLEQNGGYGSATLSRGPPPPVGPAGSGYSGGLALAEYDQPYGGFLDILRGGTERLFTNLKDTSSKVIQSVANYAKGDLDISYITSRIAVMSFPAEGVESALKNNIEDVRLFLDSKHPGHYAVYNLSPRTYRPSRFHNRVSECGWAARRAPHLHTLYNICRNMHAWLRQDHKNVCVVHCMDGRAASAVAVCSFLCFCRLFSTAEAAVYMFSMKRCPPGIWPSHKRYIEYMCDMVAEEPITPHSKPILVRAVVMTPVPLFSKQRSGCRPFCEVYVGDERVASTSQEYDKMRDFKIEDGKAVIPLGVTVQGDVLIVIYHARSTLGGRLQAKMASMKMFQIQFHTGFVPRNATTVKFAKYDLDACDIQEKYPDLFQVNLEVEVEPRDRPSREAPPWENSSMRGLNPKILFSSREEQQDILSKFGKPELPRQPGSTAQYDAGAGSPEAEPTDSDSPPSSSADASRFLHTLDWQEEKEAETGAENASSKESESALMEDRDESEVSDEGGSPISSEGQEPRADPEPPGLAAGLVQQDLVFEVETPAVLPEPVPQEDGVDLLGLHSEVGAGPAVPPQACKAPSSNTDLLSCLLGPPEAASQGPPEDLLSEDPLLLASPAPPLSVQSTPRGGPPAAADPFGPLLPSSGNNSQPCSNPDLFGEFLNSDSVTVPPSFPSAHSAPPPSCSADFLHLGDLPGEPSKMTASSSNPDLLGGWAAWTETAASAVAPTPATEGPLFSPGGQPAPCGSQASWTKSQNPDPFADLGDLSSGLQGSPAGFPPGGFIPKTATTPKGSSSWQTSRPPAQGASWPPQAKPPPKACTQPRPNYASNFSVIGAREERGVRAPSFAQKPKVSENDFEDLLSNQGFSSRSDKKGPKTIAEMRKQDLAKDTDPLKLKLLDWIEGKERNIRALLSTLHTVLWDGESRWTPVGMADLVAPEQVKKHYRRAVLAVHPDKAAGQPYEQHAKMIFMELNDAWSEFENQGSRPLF
Sequence of UniProt P48729 (whole entry, looked up): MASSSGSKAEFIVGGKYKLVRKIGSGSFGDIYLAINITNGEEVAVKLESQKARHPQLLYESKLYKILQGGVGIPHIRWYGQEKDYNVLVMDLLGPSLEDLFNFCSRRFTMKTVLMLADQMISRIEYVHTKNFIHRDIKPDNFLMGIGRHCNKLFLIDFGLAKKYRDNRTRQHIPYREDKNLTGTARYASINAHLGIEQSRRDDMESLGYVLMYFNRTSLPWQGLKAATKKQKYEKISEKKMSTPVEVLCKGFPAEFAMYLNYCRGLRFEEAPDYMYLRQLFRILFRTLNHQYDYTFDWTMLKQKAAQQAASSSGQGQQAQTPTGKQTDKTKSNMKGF
Sequence of UniProt Q03431 (whole entry, looked up): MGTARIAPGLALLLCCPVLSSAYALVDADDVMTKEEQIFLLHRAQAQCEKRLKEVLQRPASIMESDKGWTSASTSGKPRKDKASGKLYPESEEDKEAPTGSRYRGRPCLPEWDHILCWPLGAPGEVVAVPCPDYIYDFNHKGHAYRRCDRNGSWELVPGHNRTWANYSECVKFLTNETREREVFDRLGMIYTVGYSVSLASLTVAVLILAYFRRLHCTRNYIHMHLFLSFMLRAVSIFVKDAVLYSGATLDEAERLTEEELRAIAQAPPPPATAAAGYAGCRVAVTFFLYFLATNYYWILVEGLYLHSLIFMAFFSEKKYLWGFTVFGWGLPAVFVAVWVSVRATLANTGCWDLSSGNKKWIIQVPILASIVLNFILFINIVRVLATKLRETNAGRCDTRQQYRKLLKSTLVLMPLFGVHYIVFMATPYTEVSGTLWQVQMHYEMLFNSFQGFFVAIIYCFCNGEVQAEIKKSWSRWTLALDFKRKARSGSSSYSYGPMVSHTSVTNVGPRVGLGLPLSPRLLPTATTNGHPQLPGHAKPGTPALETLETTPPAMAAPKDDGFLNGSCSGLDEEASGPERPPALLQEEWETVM
Sequence of UniProt P12004 (whole entry, looked up): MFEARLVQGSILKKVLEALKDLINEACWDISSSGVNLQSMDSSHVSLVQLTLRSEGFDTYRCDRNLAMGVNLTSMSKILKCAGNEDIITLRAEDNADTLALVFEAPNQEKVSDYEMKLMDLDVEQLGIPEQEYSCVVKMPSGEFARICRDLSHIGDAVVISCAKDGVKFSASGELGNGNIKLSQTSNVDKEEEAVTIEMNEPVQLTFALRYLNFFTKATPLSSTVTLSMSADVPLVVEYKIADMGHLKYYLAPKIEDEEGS
Sequence of UniProt Q96SW2 (whole entry, looked up): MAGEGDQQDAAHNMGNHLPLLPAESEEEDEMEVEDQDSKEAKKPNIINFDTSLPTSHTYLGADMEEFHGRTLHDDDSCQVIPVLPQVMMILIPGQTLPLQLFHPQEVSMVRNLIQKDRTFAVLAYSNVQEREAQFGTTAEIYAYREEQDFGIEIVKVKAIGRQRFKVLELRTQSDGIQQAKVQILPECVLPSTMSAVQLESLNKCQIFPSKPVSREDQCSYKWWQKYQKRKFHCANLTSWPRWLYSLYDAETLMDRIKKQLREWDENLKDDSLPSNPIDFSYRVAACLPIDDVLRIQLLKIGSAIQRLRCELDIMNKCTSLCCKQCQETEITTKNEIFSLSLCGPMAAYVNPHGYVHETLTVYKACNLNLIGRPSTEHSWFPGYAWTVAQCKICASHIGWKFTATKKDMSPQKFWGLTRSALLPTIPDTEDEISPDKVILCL

Compound	target	test	test system	conditions	scale	measurement	result
O=C(NC[C@@H](Cc1ccc(F)cc1)N1CCC(O)(C(F)(F)F)CC1)C1(c2ccc(Cl)cc2)CCCC1	TRPA1 (Homo sapiens, UniProt O75762, V875G)	calcium influx, agonist		concentration not given, V875G mutant		activation	inhibited
Cc1sc2nc[nH]c(=O)c2c1C	GAK (Homo sapiens, UniProt O14976)	binding, weak affinity chromatography-MS		flow 20 µL/min	higher = stronger binding	adjusted retention time	47 min
O=C1CC[C@H](N2Cc3cc(-c4cnn5ccc(NCc6ccccc6)nc45)ccc3C2=O)C(=O)N1	Cereblon/Casein kinase I alpha (CSNK1A1/CRBN, Homo sapiens, UniProt P48729+Q96SW2)	protein level, degrader, luciferase	MOLT-4			Dmax	30%
OC[C@@H]1[C@@H](O)[C@H](O)[C@@H](O)CN1CCCCCOCC1CCOC1 (some centres unmarked)	Beta-glucosidase (GBA2, Homo sapiens, UniProt Q9HCG7)	enzyme activity, inhibitor, 4-MU-β-D-glucopyranoside	HEK293T cell homogenate		relative to: GCS over GBA2	selectivity ratio	~1000 fold
O=C(/C=C/c1ccc(O)cc1)c1c(O)cc(O)cc1O	Chalcone isomerase-like protein 1 (CHIL1, Humulus lupulus, UniProt A0A2U7XUH7)	binding, differential scanning fluorimetry				ΔTm max	6.4 °C
O=C(O)[C@H]1O[C@@H](O[C@@H]2c3cc4ccc5cccc6c7ccccc7c(c3C=C[C@H]2O)c4c56)[C@H](O)[C@@H](O)[C@@H]1O	UGT1A9 (Homo sapiens, UniProt O60656)	glucuronidation, substrate	UGT-expressing HEK293 homogenate	normalized to UGT expression		kcat	0.0117 ± 0.004 s⁻¹
CSCC[C@H](NC(=O)[C@H](CO)NC(=O)[C@@H](NC(=O)[C@H](CCC(N)=O)NC(C)=O)[C@@H](C)O)C(=O)N[C@H](C(=O)N[C@@H](CC(=O)O)C(=O)N[C@@H](Cc1ccccc1)C(=O)N[C@@H](Cc1ccc(O)cc1)C(=O)N[C@@H](Cc1c[nH]cn1)C(=O)N[C@@H](CO)C(N)=O)[C@@H](C)O	PCNA (Homo sapiens, UniProt P12004)	isothermal titration calorimetry		concentration not given, pH 7.4, 25 °C, 300 mM NaCl, added: p21 peptide		binding stoichiometry	0.71 ± 0.08
C=CCC1C(=O)C=C(OC)C2(OC)C(C)C(c3ccc4c(c3)OCO4)OC12 (single isomer, unassigned; (-))	FXR L287N, L348N, I352N, W454H	reporter gene	HEK293T	concentration not given	relative to: wild type	transcriptional activity	decreased
O=c1c(-c2ccc(OCc3ccc(F)cc3)cc2)coc2cc(OCc3ccc(F)cc3)cc(OCc3ccc(F)cc3)c12	CD38 (Homo sapiens, UniProt P28907)	cyclase activity, fluorometric		50 µM, added: NGD+ substrate	relative to: untreated	remaining activity	40 ± 1.2%
CSCC[C@H](NC(=O)[C@H](CO)NC(=O)[C@H](CC(N)=O)NC(=O)[C@H](CC(C)C)NC(=O)[C@H](CO)NC(=O)[C@H](CCCCN)NC(=O)CNC(=O)[C@H](CCCCN)NC(=O)[C@H](CC(=O)O)NC(=O)[C@H](Cc1c[nH]cn1)NC(=O)[C@H](CC(C)C)NC(=O)[C@H](CC(C)C)NC(=O)[C@H](CCC(N)=O)NC(=O)[C@H](Cc1c[nH]cn1)NC(=O)[C@H](CCC(=O)O)NC(=O)[C@H](CO)NC(=O)[C@@H](NC(=O)[C@H](C)N)C(C)C)C(=O)N[C@@H](CCC(=O)O)C(=O)N[C@@H](CCCNC(=N)N)C(=O)N[C@H](C(=O)N[C@@H](CCC(=O)O)C(=O)N[C@@H](Cc1c[nH]c2ccccc12)C(=O)N[C@@H](CC(C)C)C(=O)N[C@@H](CCCNC(=N)N)C(=O)N[C@@H](CCCCN)C(=O)N[C@@H](CCCCN)C(=O)N[C@@H](CC(C)C)C(=O)N[C@@H](CCC(N)=O)C(=O)N[C@@H](CC(=O)O)C(=O)N[C@H](C(=O)N[C@@H](Cc1c[nH]cn1)C(=O)N[C@@H](CC(N)=O)C(=O)N[C@@H](Cc1ccccc1)C(=O)N[C@@H](CCCCNC(=O)c1ccc2c(c1)C1(OC2=O)c2ccc(N(C)C)cc2Oc2cc(N(C)C)ccc21)C(N)=O)C(C)C)C(C)C	PTH1R (Homo sapiens, UniProt Q03431)	binding, NanoBRET	HEK293			koff	0.043 ± 0.01 s⁻¹
CC(=O)NCCN(CC(=O)NCCN(CC(=O)NCCN(CC(=O)NCCC(N)=O)C(=O)C[C@@H](N)Cc1ccccc1)C(=O)C[C@@H](N)Cc1ccccc1)C(=O)C[C@@H](N)CCCNC(=N)N	HIV-1 TAR RNA			25 °C		binding free energy ΔG°	-9.06 ± 0.263 kcal/mol

For quick reference, copied from above:
Compound	target	test	test system	conditions	scale	measurement	result
Cc1sc2nc[nH]c(=O)c2c1C	GAK (Homo sapiens, UniProt O14976)	binding, weak affinity chromatography-MS		flow 20 µL/min	higher = stronger binding	adjusted retention time	47 min
